# Results of several laboratories.
# Parts stem from different laboratories: compare values within a part only.

# Block 1
# Target: RNA binding protein fox-1 homolog 2, RRM domain, GST-SBP tag (RBFOX2, Homo sapiens, UniProt O43251-10, residues 100-194)
# Method: RNA Bind-n-Seq
# Molecule type: RNA
# Matrix: in vitro
# Concentration: 365 nM
# Setting: natural RNA segment, single round, ends assumed
# Baseline: no-protein control
# Direction: higher = stronger binding
# Shared flanks, not repeated: GGGAGUUCUACAGUCCGACGAUC … UGGAAUUCUCGGGUGCCAA
# Construct (chain): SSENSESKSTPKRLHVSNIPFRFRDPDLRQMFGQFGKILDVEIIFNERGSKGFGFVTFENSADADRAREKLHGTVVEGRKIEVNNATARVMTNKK
Sequence,RBNS enrichment (R)
AAACUGUGGACGUCAGGAGGCCGAAUGCAGAAAAGUAUAUCUGGGAUGGAUGGCAGGGAAUAGAAGCUAGGACUGGAGUUCCUGUCCUGCCGCCUUGGUUCCUGCAGUGC,0.729
ACUAGCACUAAUUUUAUUUGCAAUAUUUUUCUAUAAAACAAGUAGCUCUUGGAAAAGAGGUUUUCUUUUCUAAGCCGCCGUUCGUGACCUCUGACCUCUGGUUCUAUUUU,0.258
AAGCUGCUUCACAACUCCAGGCUAGAAGGCAGGAGAGCGAUCUGAUGUGUUUCUUUCAUUUGCCAGAAUUCCUGAUACCAAAAGCCUCUCUCUCUGUUGAGUAACCUCUC,0.331
UACUGGAGCGUAGGGAUGAGAUAAAGGGAUGGAUCCGAGUCCUCCCGGGGCCUGCCAAGCUUUUCCAUACUUCCAGAUGAUGUUAUAAGGCAUUAAACAGCCACCAUCGC,0.342
UAAAGGCUAUAUUGCUGUAAACUUAAUUGAUAAAGCUCUGUUUAAUUUAGAGUUUUGAAGAAAUAGUCUCCCUUCAAUUAAGAAAUUUUCAUAAUGGAAUGAUUUAAAUU,0.69
UCCUCUAAGGUGGUUCGAUGUGAGGCGACCUGAAGCUCAGCCCUCGGGAAGCUUCUUGUGUCUGGAAGCUUCUUGUGUCUCCACGUUUCAAUUUUGUUUUGUUUUACCAC,0.49
ACAUAUGUAAUAUUAAUAGUUAUUAUUUACUGGUGCAGAUGGUUGACAUUUUUCCCUAUUUUCCUCACUUUAUGGAAGAGUUAAAACAUUUCUAAACCAGAGGACAAAAG,0.289

# Block 2
# Target: Interferon regulatory factor 3, full length, phosphomimetic (IRF3, Homo sapiens, UniProt Q14653, residues 1-427, S386D/S396D/S398D/S402D/T404D/S405D)
# Chain of UniProt Q14653 (whole entry, unmodified, looked up): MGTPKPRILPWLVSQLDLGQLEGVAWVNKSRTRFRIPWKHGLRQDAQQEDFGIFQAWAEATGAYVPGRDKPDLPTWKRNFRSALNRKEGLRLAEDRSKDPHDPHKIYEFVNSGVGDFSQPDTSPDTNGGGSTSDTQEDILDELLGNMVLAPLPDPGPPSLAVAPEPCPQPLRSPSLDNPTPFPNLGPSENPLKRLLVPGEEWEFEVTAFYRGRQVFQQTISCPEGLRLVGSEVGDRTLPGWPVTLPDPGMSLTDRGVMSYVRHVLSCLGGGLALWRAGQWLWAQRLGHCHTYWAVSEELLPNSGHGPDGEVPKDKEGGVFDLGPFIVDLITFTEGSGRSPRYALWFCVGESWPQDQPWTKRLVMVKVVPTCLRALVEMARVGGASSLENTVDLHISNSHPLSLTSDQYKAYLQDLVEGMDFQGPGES
# Method: protein-binding microarray
# Molecule type: double-stranded DNA, one strand shown
# Matrix: in vitro
# Concentration: 2540 nM top
# Setting: 60-bp whole probe
# With: salmon DNA 0.4 mg/ml
# Baseline: random background probes
# Direction: higher = stronger binding
Sequence,fitted relative affinity
GCCTAGCACTCACCTTCAGCTCTAGGACTGTGCTAGGTCTTGATTCGCTTGACGCTGCTG,0.145 z-score
GCCTAGCACTTCGATCTCAGTCTCGATTAGTGCTAGGTCTTGATTCGCTTGACGCTGCTG,1.18 z-score
GCCTAGCACGGCGGTCTCCTTCTCCTGACGTGCTAGGTCTTGATTCGCTTGACGCTGCTG,4.01 z-score
GCCTAGCACGACGGATTGGGGTTTCGGGACGTGCTAGTCTTGATTCGCTTGACGCTGCTG,0.96 z-score

# Block 3
# Target: Histone acetyltransferase KAT6A, winged helix 2, GST fusion (KAT6A, Homo sapiens, UniProt Q92794, residues 85-181)
# Method: protein binding microarray
# Molecule type: double-stranded DNA, one strand shown
# Matrix: in vitro
# Concentration: not given
# Setting: 8-mer, flanks averaged, mean of 2 arrays, mostly near background
# Baseline: not given
# Direction: higher = stronger binding
# Construct (chain): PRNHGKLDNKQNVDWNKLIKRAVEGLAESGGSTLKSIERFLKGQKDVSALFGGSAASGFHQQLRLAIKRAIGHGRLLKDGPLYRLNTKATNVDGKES
Sequence,E-score
AACATCTG,-0.0769
CATTCAGC,-0.147
AGATACGG,-0.0869
AGGCACTG,0.238
AAGGCGTG,0.0309
ACGTTAAG,-0.224
CTAGAGCA,0.0367

# Further values, each from its own experiment
Substance,target,assay,system,setting,how to read,endpoint,result
"PhoQ, residues 284 288 289 292 302 303 AGGCYF","PhoP, residues 12 14 15 18 19 SPWRL (Escherichia coli, UniProt P23836)","Sort-seq, item: YFP reporter",E. coli,"PhoQ-PhoP variant library, with: 10 µM Mg2+","baseline: high Mg2+ state, higher = stronger signaling",fold induction,0.845

# Repeated from above (block 3):
Sequence,E-score
CATTCAGC,-0.147
CTAGAGCA,0.0367
ACGTTAAG,-0.224
